Results collected from several papers.
Compare with care: the assays were run in different laboratories.

Structure (SMILES) | organism | observed | technique | strain | time | temperature | MIC
CC1C=CC=CC(C)C2C=CC3CC(C)(O)C(OCc4ccccc4)C(C)C3C2C(=O)C(Cl)(Cl)C(=O)C(C)C(=O)O1 (stereo not shown) | Corynebacterium glutamicum | – | broth microdilution | DSM 20300 | – | – | 3.2 µg/mL
Oc1c(Br)c(Cl)c(Br)c2nc3c(C(F)(F)F)cc(C(F)(F)F)cc3nc12 | Enterococcus | – | broth microdilution | VRE 700221 | – | – | 3.13 µM
COc1ccc(-c2c(O)oc3c(CC=C(C)C)c(O)cc(O)c3c2=O)cc1 | Nakaseomyces glabratus | – | broth microdilution | clinical isolate | 48 h | 37 °C | > 500 µg/mL
CN(C)c1cc(CNC(=O)C(C)(C)C)c(O)c2c1C[C@H]1C[C@H]3[C@H](N(C)C)C(O)=C(C(N)=O)C(=O)[C@@]3(O)C(O)=C1C2=O | Enterococcus faecalis | – | – | JH2-2(pMV158), Tet L efflux | – | – | 2 µg/mL
CCCCOC1C(C)C2C(C=CC3C(C)C=CC=CC(C)OC(=O)C(C)C(=O)C(Cl)(Cl)C(=O)C32)CC1(C)O (stereo not shown) | Corynebacterium glutamicum | – | broth microdilution | DSM 20300 | – | – | > 3.2 µg/mL
CCCCCCCCCCCC[S+]([O-])CC1OC(OC2C(N)CC(N)C(OC3OC(CN)C(O)CC3N)C2O)C(O)C(N)C1O (mixture of isomers) | Enterococcus | – | – | vancomycin-resistant | – | – | 150 µg/mL
CN(C)Cc1cc(N(C)C)c2c(c1O)C(=O)C1=C(O)[C@]3(O)C(=O)C(C(N)=O)=C(O)[C@@H](N(C)C)[C@@H]3C[C@@H]1C2 | Enterococcus faecalis | microbial growth | broth dilution | – | – | – | 2 µg/mL
CC(C=CC(O)=C1C(=O)CNC1=O)=CC(C)C1OC2(C)OC(C(=O)C(O)C2(C)O)C1C (stereo not shown) | Enterococcus | – | – | vancomycin-resistant | – | – | > 100 µM
C[C@@H]1C(=O)O[C@@H](C)/C=C/C=C\[C@@H](C)[C@@H]2C=C[C@@H]3C[C@]4(C)O[C@@H]4[C@@H](C)[C@H]3[C@@H]2C(=O)C(Cl)(Cl)C1=O | Corynebacterium glutamicum | – | broth microdilution | DSM 20300 | – | – | 0.5 µg/mL
C=CCNCc1cc(N(C)C)c2c(c1O)C(=O)C1=C(O)[C@]3(O)C(=O)C(C(N)=O)=C(O)[C@@H](N(C)C)[C@@H]3C[C@@H]1C2 | Enterococcus faecalis | – | – | JH2-2(pMV158), Tet L efflux | – | – | 1 µg/mL
Cc1cc(O)cc2c1C(=O)c1c(cc3oc(=O)cc(-c4ccc(Cl)cc4)c3c1O)C2=O | Klebsiella aerogenes | – | – | – | – | – | 0.25 µg/mL
O=C(CCC(=O)[c-]1cccc1)NCCN(CC(=O)Nc1ccc(I)cc1)C(=O)CCc1cn(C[c-]2cccc2)nn1.[C-]#[O+].[C-]#[O+].[C-]#[O+].[Fe+2].[Mn+].c1cc[cH-]c1 | Bacillus subtilis, Staphylococcus aureus | – | – | incl. MRSA | – | – | > 512 µg/mL
COCCNCc1cc(N(C)C)c2c(c1O)C(=O)C1=C(O)[C@]3(O)C(=O)C(C(N)=O)=C(O)[C@@H](N(C)C)[C@@H]3C[C@@H]1C2 | Enterococcus faecalis | microbial growth | broth dilution | – | – | – | 0.5 µg/mL
N#Cc1ccc2cccc(O)c2n1 | all tested microorganisms | – | agar dilution | – | – | – | ≥ 1500 µM
CCCCCCCCCCCCCCCCCCCCCCSCC1OC(OC2C(N)CC(N)C(OC3OC(CN)C(O)CC3N)C2O)C(O)C(N)C1O (stereo not shown) | Enterococcus | – | – | vancomycin-resistant | – | – | > 150 µg/mL
CC1C=CC=CC(C)C2C=CC3CC(C)(Cl)C(O)C(C)C3C2C(=O)C(Cl)(Cl)C(=O)C(C)C(=O)O1 (stereo not shown) | Corynebacterium glutamicum | – | broth microdilution | DSM 20300 | – | – | 0.4 µg/mL
CN(C)c1cc(CNC(=O)OCC(C)(C)C)c(O)c2c1C[C@H]1C[C@H]3[C@H](N(C)C)C(O)=C(C(N)=O)C(=O)[C@@]3(O)C(O)=C1C2=O | Enterococcus faecalis | microbial growth | broth dilution | – | – | – | 4 µg/mL
COC1C(C)C2C(C=CC3C(C)C=CC=CC(C)OC(=O)C(C)C(=O)C(Cl)(Cl)C(=O)C32)CC1(C)O (stereo not shown) | Corynebacterium glutamicum | – | broth microdilution | DSM 20300 | – | – | > 6.4 µg/mL
CC(/C=C/C(O)=C1/C(=O)CNC1=O)=C\[C@@H](C)[C@H]1O[C@@]2(C)O[C@H](C[C@@H]3O[C@@]32CO)[C@@H]1C | Enterococcus | – | – | vancomycin-resistant | – | – | > 100 µM
CN(C)c1cc(CNCc2ccc(O)cc2)c(O)c2c1C[C@H]1C[C@H]3[C@H](N(C)C)C(O)=C(C(N)=O)C(=O)[C@@]3(O)C(O)=C1C2=O | Enterococcus faecalis | – | – | JH2-2(pMV158), Tet L efflux | – | – | 4 µg/mL
Oc1c(Br)cc(Br)c2nc3cc(C(F)(F)F)ccc3nc12 | Enterococcus | – | broth microdilution | VRE 700221 | – | – | 0.39 µM
COC1(C)CC2C=CC3C(C)C=CC=CC(C)OC(=O)C(C)C(=O)C(Cl)(Cl)C(=O)C3C2C(C)C1O (stereo not shown) | Corynebacterium glutamicum | – | broth microdilution | DSM 20300 | – | – | > 3.2 µg/mL
CN(C)c1cc(CNC2CCCC2)c(O)c2c1C[C@H]1C[C@H]3[C@H](N(C)C)C(O)=C(C(N)=O)C(=O)[C@@]3(O)C(O)=C1C2=O | Enterococcus faecalis | – | – | JH2-2(pMV158), Tet L efflux | – | – | 1 µg/mL
CC1C=CC=CC(C)C2C=CC3CC(C)(O)C(Br)C(C)C3C2C(=O)C(Cl)(Cl)C(=O)C(C)C(=O)O1 (stereo not shown) | Corynebacterium glutamicum | – | broth microdilution | DSM 20300 | – | – | 0.1 µg/mL
CN(C)c1cc(CNC2CCCCC2)c(O)c2c1C[C@H]1C[C@H]3[C@H](N(C)C)C(O)=C(C(N)=O)C(=O)[C@@]3(O)C(O)=C1C2=O | Enterococcus faecalis | microbial growth | broth dilution | – | – | – | 1 µg/mL
